Measured values pooled from the literature.
Every numbered part comes from another study and shows a few of its results, in no order.

Sample 1 — method: RNA Bind-n-Seq; form: RNA; sample: in vitro; tested at: not given; reference: input RNA pool; direction: higher = stronger binding
Target: RING finger protein unkempt homolog, zinc fingers 1-6, GST-SBP tag (UNK, Homo sapiens, UniProt Q9C0B0, residues 30-357)
UniProt Q9C0B0, sequence (30-357, looked up): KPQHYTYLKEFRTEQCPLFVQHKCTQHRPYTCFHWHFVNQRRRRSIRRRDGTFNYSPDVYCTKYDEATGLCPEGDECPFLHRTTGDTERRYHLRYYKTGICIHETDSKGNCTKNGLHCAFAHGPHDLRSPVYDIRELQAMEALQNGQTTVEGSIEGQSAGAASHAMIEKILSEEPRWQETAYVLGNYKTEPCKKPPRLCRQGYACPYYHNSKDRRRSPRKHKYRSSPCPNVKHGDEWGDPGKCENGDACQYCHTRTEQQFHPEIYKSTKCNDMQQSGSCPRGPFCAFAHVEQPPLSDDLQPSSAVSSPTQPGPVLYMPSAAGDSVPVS
Setting: RNA with constant flanks, human-mouse chimeric sites, ends assumed
Constant ends, left off below: GGGAGUUCUACAGUCCGACGAUC … CAACAGAGGAUUGAGCAUCA
Sequence | bound/input enrichment
AUGGAACAUUUCGAUGCAUCACUUAGUACCUAUUUCAAGGCCUUCCUGGGCCCCCGAGAUACAAGAGUAAAAGGAUGGUUCCUCCUGGACAAUUACAUCCCUACGUUUGUCUGUUCUGUU | 0.275 ratio
GGCCUGGGACCGUCCUGGGCUAGUACAAAUAGCGGCAUGGAGGCUCAGAGAGGAAAGUUUGUUAGUGGAGGCAGUGGUAGAGGCCGUAUGUACGCUCCCUUUACUCGAUAGAUGUGUUCU | 0.349 ratio
GGUGGGGUGGUCAUUGCCGUUUGAGCUGCUGAUUUUCUUAUGAAUCAUUCAAAACUCUCGUGUAGGGUUGACAAUGUGGGGGGGUGGGGGAUCCAGCUUAUUCUUUUUCCCCAGCCCCCA | 0.486 ratio
AGAUUCCCUCUCUUAAAACCUCCUCCGAAGUUGGAGUCUCUUACAGAUGCCUCAUCCCCUGUUAGCGUUUUAGUUUGGACCACCCAGCCUUGGACAAUUCCCGCCAACCAGGCAAUUUGC | 1.18 ratio
UUAAUCCCCUUUACUGCUCCCCCACUUCUCAUGGUAAUAACAAAGUCUUAUAUCCCCAUAUUAGCUUUCACUCAGAUGGCUUAUGGAGCCAGUUUCCUAGCUUUCUUGGGAGGGAUCAGA | 0.385 ratio
AUGGUUGUGUCUCUUGAGAUCUAAAAAAAACAUGAUUUUUCCUGGCACAUAUUCCAAAGCAAAGACUUUGUUGCCUGCUGCUUAUUGUCUAAUUUACAGGGAUAUUUAAUUUUGUCAGGU | 0.214 ratio
CUUAUGGCUGCAGAAACAGGAAGUGGAAAAACUGGUGCAUUUAGUAUUCCCGUUAUCCAGAUAGUGUAUGAAACUCUGAAAGACCAACAGGAAGGCAAGAAAGGGAAAACAACUAUUAAA | 0.75 ratio
UUACCCGAGAACGAGGAUGAGCUGGAGAGCACCAACAGGCGCUACACCAAGAGAGACUGUAGCACUUUCCUCAGAACUAGUGAGACGGGCAUCGUGGACCAGGUCAUGGUCACUCUCAAC | 0.225 ratio

Sample 2 — method: RNA Bind-n-Seq; form: RNA; sample: in vitro; tested at: 365 nM; reference: no-protein control; direction: higher = stronger binding
Target: RNA binding protein fox-1 homolog 2, RRM domain, GST-SBP tag (RBFOX2, Homo sapiens, UniProt O43251-10, residues 100-194)
Setting: natural RNA segment, single round, ends assumed
Constant ends, left off below: GGGAGUUCUACAGUCCGACGAUC … UGGAAUUCUCGGGUGCCAA
Construct (chain): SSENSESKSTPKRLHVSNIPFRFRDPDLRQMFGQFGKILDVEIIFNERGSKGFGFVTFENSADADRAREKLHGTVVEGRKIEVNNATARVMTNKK
Sequence | RBNS enrichment (R)
UGACAGCACUAACCAGACCUCCAGCCACUCACAGCUCUUUUUAAAAAACAGCUUCAAAAUAUGCAGCAAAAACCAAUACAACAAAACGAGUGGCACGAUUUAUUUCAAAC | 0.551
CAGAUUAACUUGUGAGAAUCAGGAAAAUUCCUUCAACUGCAUUGCAUCCUCUUGGACCAGGGCUAGAAUGGGGAUUUCAGGUUUCUAUGAGCCUCCCCAUUACCCCUAAA | 0.494
AGCAAACGGUUCUAAAUGAAAAUCAGCAAACCUGAAAGCCUGGGAUUCUGACGCCUACUGGCUCUAUGUAAUUAUUAAGUCACAUUGACCUCUGUGUAGGGCUGUUUUCC | 0.367
UCCCUAACGGAAGCCCUAAAUCCCAGAGAGCUACAGGUCUGCUCCCCAUGGGCCCUCGGGCCUGACCAAUCCAGACGAGGCAGAGAGCAGCAGCGACUCAAGGGCCGUGU | 0.346
ACAGGAUGCAACUAUUCCCAAUCCUUUCCAGAAUGUCACUCACUCCCUUGGGCUGUUGUGGGAAAAUAUGGAGGCUGGCACCAAAUUUCAUAGUUUGGGAGAUGGACAUU | 0.518
CUCCCCAUCUUCCCUAGAGGCUGCCUGCGCAUCUGGAGCCUGCGCUCCGGCUCAGCGACCUUUCCUCUCAAAUGCGGAAGCGUGCACUUACAGUUCAGACCGUUCUCCUG | 0.343
UGUGAGGCUCAGAUGCUGAUACCAGUAACAUUCAAAAUUAACUUCACGCAUUGAAUACAUUUAAACUGUUCAUUAGCGGAGUGAUAUUUGGACAUAAAUAUCUCGUCUUC | 0.223
AGCCAUUUUACAUAGCACAUCAUUCCUCCUAUAGGGAUGAACUUUUUCCUGGCACGAAAAGUAGCCGCUCUGGUUGAAGCUUUGCUUAUUGUAACAGGCUUUUAUUUCCA | 0.286

Sample 3 — method: RNAcompete; form: RNA; sample: in vitro; tested at: 20 nM; setting: 7-mer, probes averaged, single round; reference: mean of 7-mers; direction: higher = stronger binding
Target: PABPC1L2, full length, GST fusion (mouse, UniProt A0ABA7IW68)
Target sequence (chain): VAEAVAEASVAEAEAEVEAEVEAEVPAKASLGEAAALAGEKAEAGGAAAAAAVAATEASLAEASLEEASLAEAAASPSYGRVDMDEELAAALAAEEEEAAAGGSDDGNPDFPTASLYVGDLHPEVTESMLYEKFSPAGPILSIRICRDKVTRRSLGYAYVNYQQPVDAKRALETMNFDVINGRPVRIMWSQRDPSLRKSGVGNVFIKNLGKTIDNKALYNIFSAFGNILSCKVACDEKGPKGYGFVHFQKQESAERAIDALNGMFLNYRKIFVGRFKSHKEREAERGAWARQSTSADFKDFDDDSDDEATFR
Sequence | 7-mer Z-score
GAUUCUG | -0.316
UUAGACC | -0.298
UCCGCUU | -0.456
GGGCCGA | 0.186
GACCGAU | 0.0478
GCCGGCA | -0.335
CCUCCGC | -0.456
UCCACGA | -0.249
CCUACGA | -0.171
GCACCUG | -0.13
AUGGUUU | -0.358
CGGUCAG | -0.108
UAACAAG | 0.0424
GAUUACA | 0.0569
CGAGAUC | -0.213
AAAGGUC | 0.418
CCUGGCU | -0.246
UUUUCGC | -0.376
ACAAAGG | 0.657
UCCUGCA | -0.186
CACAGGA | 0.2
ACUGUCG | -0.277
CCAUUAG | -0.335
GCUUACG | -0.253

Sample 4 — method: protein binding microarray; form: double-stranded DNA, one strand shown; sample: in vitro; tested at: not given; reference: not given; direction: higher = stronger binding
Target: Histone acetyltransferase KAT6A, winged helix 2, GST fusion (KAT6A, Homo sapiens, UniProt Q92794, residues 85-181)
Setting: 8-mer, flanks averaged, mean of 2 arrays, mostly near background
Target sequence (chain): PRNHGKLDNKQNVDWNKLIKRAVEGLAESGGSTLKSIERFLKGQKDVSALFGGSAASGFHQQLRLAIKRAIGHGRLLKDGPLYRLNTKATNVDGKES
Sequence | E-score
TACCTACA | -0.073
ACAAGTGT | -0.114
ATACCTCC | -0.0441
CACGATAA | 0.0998
CTACGGCC | 0.0655
AGTCGGAT | -0.038
ACCTTAGA | -0.0617
CTGTGTCA | 0.0561
GGCGTGGA | -0.0647
GCCGTCAA | 0.0709
AGGTTCCC | -0.0114
CAGTGGGA | 0.0295
CCTTAATA | -0.0258
AAACTTAC | -0.197
CTACAATA | -0.153
CCTCAAAG | 0.138
GTAAGTAC | -0.171
AACCGAGA | 0.0218
AATGGGGC | -0.158
AACATTCC | -0.056

Excerpt of the above (sample 4):
Sequence | E-score
ATACCTCC | -0.0441
CACGATAA | 0.0998
CTACGGCC | 0.0655
AGTCGGAT | -0.038
ACCTTAGA | -0.0617
CTGTGTCA | 0.0561
GGCGTGGA | -0.0647
GCCGTCAA | 0.0709
AGGTTCCC | -0.0114
